Published values of several laboratories.
Protocols differ between the studies behind these lines. Several values in a cell are separate wells, animals, samples, runs or records. Numbers after ± are the reported error.

SMILES	tested on	test	system	conditions	how to read	endpoint	value
COc1ccc2c3c1O[C@H]1[C@H](O)CC[C@@]4(O)[C@@H](C2)N(C)CC[C@]314	–	pH-potentiometric titration	–	–	reference: O-methyl derivative	Δlog K, saturation effect	0.48 log units
Cc1ccc(OC[C@@H]2CCCN2C)cc1C(=O)N[C@H](C)c1cc(-c2cnn(C)c2)nc2ccccc12	Vero E6	–	–	250 µM	–	viability	1.69% and 1.13%
O=C1NC2(CC2)COc2ncc(F)cc2[C@H]2COCCN2c2ccn3ncc1c3n2	–	–	Sprague-Dawley rat, female, serum	oral, 20 mg/kg/day, 4 weeks daily, end of recovery period	–	total cholesterol	1.8 ± 0.26 mmol/L
Cc1ccn2c(-c3csc(Nc4ccccn4)n3)c(C)nc2c1	HEp-2	cell growth or viability, ATP luminescence	–	72 h	–	IC50	> 10 µM
COc1ccc2c3c1O[C@H]1C(=O)CC[C@@]4(O)[C@@H](C2)N(CC2CCC2)CC[C@]314	–	PAMPA-BBB	porcine brain lipid	500 µM, 4 h, pH 7.4, 1% DMSO	–	Papp	57.7 ×10⁻⁶ cm/s
Cc1ccc(OCCN(C)C)cc1C(=O)N[C@H](C)c1cc(-c2cncs2)nc2ccccc12	Vero E6	–	–	15.62 µM	–	viability	131% and 110%
CC[C@H](C)[C@H](NC(=O)[C@H](CCCCN)NC(=O)CNC(=O)[C@H](CC(C)C)NC(=O)[C@H](Cc1ccccc1)NC(=O)[C@H](CCCCN)NC(=O)[C@H](CO)NC(=O)[C@H](Cc1ccccc1)NC(=O)[C@H](Cc1c[nH]c2ccccc12)NC(=O)[C@H](CCC(N)=O)NC(=O)[C@@H](NC(=O)[C@H](Cc1ccccc1)NC(=O)CCCCCNC(=O)CN1CCN(CC(=O)O)CCN(CC(=O)O)CCN(CC(=O)O)CC1)C(C)C)C(=O)N[C@@H](CCC(=O)O)C(=O)N1CCC[C@H]1C(=O)N[C@@H](CC(=O)O)C(=O)N[C@H](C(=O)N[C@@H](CO)C(=O)N[C@@H](CCC(N)=O)C(=O)N[C@H](C(=O)N[C@@H](CCC(N)=O)C(=O)N[C@@H](CC(=O)O)C(=O)N1CCC[C@H]1C(=O)N[C@@H](CC(N)=O)C(=O)N[C@@H](CC(=O)O)C(=O)N[C@@H](CCC(N)=O)C(=O)N[C@@H](Cc1ccc(O)cc1)C(=O)N[C@@H](CCC(=O)O)C(=O)N1CCC[C@H]1C(=O)N[C@@H](Cc1ccccc1)C(=O)O)C(C)C)C(C)C [copper-64 labelled]	–	dynamic PET	mouse both sexes, CT26 tumour, untreated, tumour	intravenous, 100 µCi/mouse, 170 s	–	SUVmean	1.19 SUV
Cc1nc2cccc(OCC(C)(C)C(=O)NC(C)C)c2c(N)c1C(=O)[O-].[Na+]	Salmonella typhimurium	Ames plate incorporation	TA1535	0.80 mg/plate, added: with rat liver S9	–	revertant colonies	14 ± 4 colonies/plate
Cc1ccc(OCCN(C)C)cc1C(=O)N[C@H](C)c1cc(-c2ccc(CNC3CCCC3)s2)nc2ccccc12	Vero E6	–	–	7.812 µM	–	viability	103% and 100%

Excerpt of the above:
SMILES	tested on	test	system	conditions	how to read	endpoint	value
Cc1ccn2c(-c3csc(Nc4ccccn4)n3)c(C)nc2c1	HEp-2	cell growth or viability, ATP luminescence	–	72 h	–	IC50	> 10 µM
